Assay results from different studies.
Protocols differ between the studies behind these lines. Several values in a cell are separate wells, animals, samples, runs or records.
Nos2: Nitric oxide synthase, inducible (Nos2, Mus musculus, UniProt P29477)
Tmem97: Sigma intracellular receptor 2 (Tmem97, Rattus norvegicus, UniProt Q5U3Y7)

Compound | target | test | test system | conditions | how to read | selectivity ratio
Cc1cc(N)nc(CC2CNCC2OCCNCC(F)(F)c2ccc(F)cc2)c1 (centres unmarked) | Nos2 | hemoglobin capture | – | – | reference: Ki iNOS over Ki nNOS | 1200
C/C(=N\OCCN(C)Cc1ccccc1)c1ccc(C(F)(F)F)cc1 | Tmem97 | binding, [3H]-DTG radioligand binding | rat brain homogenate | – | reference: Ki over sigma-1 Ki | 306 fold
COc1ccc(CCCN[C@@H]2CCC[C@H]2CN[C@@H]2CCC[C@H]2CNCCCCN[C@@H]2CCC[C@H]2CN)cc1 | KDM1B (Homo sapiens, UniProt Q8NB78) | peroxidase-coupled | – | – | reference: Ki for KDM1B over Ki for LSD1 | 3.8
Cc1cc(O)c2c(c1)C(=O)c1cc(O)c(O)c(O)c1C2=O | MAOA (Homo sapiens, UniProt P21397) | – | – | – | reference: IC50 MAO-B over MAO-A | 0.85
Oc1ccc(CCC(O)CC(O)CCc2ccc(O)cc2)cc1 (centres unmarked) | Maob (Rattus norvegicus, UniProt P19643) | – | rat enzyme | added: benzylamine | reference: MAO-B over MAO-A | ~2
Cc1cc(N)nc(C[C@@H]2CNC[C@@H]2OCCCCCc2cccc(N)n2)c1 | Nos2 | enzyme activity, inhibitor | – | – | reference: Ki Nos2 over Ki nNOS | 619
C/C(=N\OCCN1CCCCC1)c1cccc(C(F)(F)F)c1 | Tmem97 | binding, [3H]-DTG radioligand binding | rat brain homogenate | – | reference: Ki over sigma-1 Ki | 39 fold
Cc1cc(N)nc(C[C@@H]2CNC[C@@H]2OCCCCCc2cccc(F)c2)c1 | Nos2 | enzyme activity, inhibitor | – | – | reference: Ki Nos2 over Ki nNOS | 91
Cc1ccc(C[C@H](NC(=O)CN2CCCc3cc4cc(C(=O)NCCNC(=O)CCCC[C@@H]5SC[C@@H]6NC(=O)N[C@@H]65)c(=O)oc4cc32)C(=O)NC/C=C/S(=O)(=O)c2ccccc2)cc1 | Cathepsin S (CTSS, Homo sapiens, UniProt P25774) | enzyme activity, irreversible inhibitor | – | – | reference: rhodesain kinact/Ki over cathepsin S kinact/Ki | 7.4
Cc1cc(N)nc(C[C@@H]2CNC[C@@H]2OCCC/C=C/c2cccc(F)c2)c1 | Nos2 | enzyme activity, inhibitor | – | – | reference: Ki Nos2 over Ki nNOS | 55
O=C(c1ccc(SCCF)cc1)C1CCN(C2Cc3ccccc3CC2O)CC1 (single isomer, unassigned; (-)) | SIGMAR1 (Cavia porcellus, UniProt Q60492) | – | – | added: (+)-[3H]pentazocine | reference: SIGMAR1 Ki over VAChT Ki | ~13.6 fold and ~13 fold

Some of these lines once more:
Compound | target | test | test system | conditions | how to read | selectivity ratio
Cc1ccc(C[C@H](NC(=O)CN2CCCc3cc4cc(C(=O)NCCNC(=O)CCCC[C@@H]5SC[C@@H]6NC(=O)N[C@@H]65)c(=O)oc4cc32)C(=O)NC/C=C/S(=O)(=O)c2ccccc2)cc1 | Cathepsin S (CTSS, Homo sapiens, UniProt P25774) | enzyme activity, irreversible inhibitor | – | – | reference: rhodesain kinact/Ki over cathepsin S kinact/Ki | 7.4
Cc1cc(N)nc(C[C@@H]2CNC[C@@H]2OCCC/C=C/c2cccc(F)c2)c1 | Nos2 | enzyme activity, inhibitor | – | – | reference: Ki Nos2 over Ki nNOS | 55
